Measured values from different studies.
Lines come from different studies, so protocols differ. Numbers after ± are the reported error.
rep nsp3 macrodomain: Replicase polyprotein 1ab, nsp3 macrodomain (rep, Severe acute respiratory syndrome coronavirus 2, UniProt P0DTD1)
rep main protease: Replicase polyprotein 1ab, main protease (rep, Severe acute respiratory syndrome coronavirus 2, UniProt P0DTD1)
rep nsp14: Replicase polyprotein 1ab, nsp14 (rep, Severe acute respiratory syndrome coronavirus 2, UniProt P0DTD1)

O=C(O)CCC(=O)Nc1ccc2nc3c(=O)[nH]c(=O)[nH]c3nc2c1 — Kd (rep nsp3 macrodomain; binding, microscale thermophoresis; 4% DMSO): 45 ± 1.8 µM
CC(=O)N[C@@H](Cc1ccc(O)cc1)C(=O)N[C@@H](CC(=O)O)C(=O)N[C@H]1CCC[C@@H]1C(=O)N[C@@H](Cc1ccccc1)C(=O)N[C@@H](Cc1ccc(O)cc1)C(=O)N[C@H]1CCC[C@@H]1C(=O)N[C@@H](Cc1ccc(O)cc1)C(=O)N[C@H](C(=O)N[C@H](C(=O)N[C@@H](Cc1ccccc1)C(=O)N[C@@H](Cc1c[nH]cn1)C(=O)N[C@H](C(=O)N[C@@H](C)C(=O)N[C@H](C(N)=O)[C@@H](C)O)C(C)C)[C@@H](C)O)C(C)C — Kd (rep main protease; binding, SPR): 0.0295 µM
O=c1oc2cc(O)ccc2c2cc(O)c(O)cc12 — Kd (rep main protease; binding): 6.7 ± 0.7 µM
CCN1C(=O)CCC1c1c(O)cc(O)c2c1O[C@H](c1cc(O)c(O)c(O)c1)[C@H](OC(=O)c1cc(O)c(O)c(O)c1)C2 (stereo partly shown) — Kd (rep main protease; binding, SPR): 3.46 µM
CC(C)(C)c1ccc(NC(=O)NCCC[C@H](CNCc2ccccc2)C[C@H]2O[C@@H](n3cnc4c(N)ncnc43)[C@H](O)[C@@H]2O)cc1 — Kd (rep nsp14; binding to nsp14, surface plasmon resonance): 18.9 µM
O=c1c2cccc([N+](=O)[O-])c2[se]n1Cc1ccccc1 — Kd (rep main protease; cell-free assay): 7.3 µM
Nc1ncnc2c1ncn2[C@@H]1O[C@H](CSCCNC(=O)NCCc2ccccc2)[C@@H](O)[C@H]1O — Kd (rep nsp14; binding to nsp14, surface plasmon resonance): 1.6 µM
CN(C)CCNC(=O)C[C@H](Cc1ccc(F)cc1)NC(=O)[C@@H](Cc1ccc(Cl)cc1Cl)NC(=O)[C@H](N)Cc1ccccc1C#N — Kd (rep main protease; binding, SPR): 0.196 µM
O=C(Cc1n[nH]c(=O)c2ccccc12)Nc1ccc(NS(=O)(=O)c2ccc3c(c2)OCCO3)cc1 — Kd (Replicase polyprotein 1ab, nsp12 RdRp (rep, Severe acute respiratory syndrome coronavirus 2, UniProt P0DTD1); binding): > 39 µM
O=C(/C=C/c1ccc(O)cc1)O[C@@H]1Cc2c(O)cc(O)cc2O[C@@H]1c1cc(O)c(O)c(O)c1 — Kd (rep main protease; binding, SPR): 4.28 µM
CC(=O)N[C@H](Cc1ccc(O)cc1)C(=O)N[C@@H](CCCNC(=N)N)C(=O)N[C@@H](Cc1ccccc1)C(=O)N[C@H]1CCC[C@@H]1C(=O)N[C@@H](CCCNC(=N)N)C(=O)N[C@@H](CC(N)=O)C(=O)N[C@H]1CCC[C@@H]1C(=O)N[C@H](C(=O)N[C@@H](Cc1ccccc1)C(=O)N[C@H]1CCC[C@@H]1C(=O)N[C@@H](Cc1ccccc1)C(=O)N[C@@H](Cc1ccc(O)cc1)C(=O)N[C@H]1CCC[C@@H]1C(=O)N[C@H](C(=O)N[C@@H](CC(=O)O)C(N)=O)[C@@H](C)O)C(C)C — Kd (rep main protease; binding, SPR): 0.00883 µM
O=C(/C=C/c1ccc(O)c(O)c1)O[C@@H]1Cc2c(O)cc(O)cc2O[C@@H]1c1ccc(O)c(O)c1 — Kd (rep main protease; binding, SPR): 3.6 µM
Nc1nc(O)c2c(n1)NC(=O)CC2c1ccc(-c2ccccc2)cc1 (stereo not shown) — Kd (rep nsp3 macrodomain; binding, microscale thermophoresis; 4% DMSO): 65.4 ± 3.8 µM
COC(=O)C[C@H](c1ccc(O)cc1)c1c(O)cc(O)c2c1O[C@H](c1cc(O)c(O)c(O)c1)[C@H](OC(=O)c1cc(O)c(O)c(O)c1)C2 — Kd (rep main protease; binding, SPR): 2.25 µM
NC(=O)c1cccc(CCN(CC[C@H](N)C(=O)O)C[C@H]2O[C@@H](n3cnc4c(N)ncnc43)[C@H](O)[C@@H]2O)c1 — Kd (rep nsp14; binding to nsp14, surface plasmon resonance): 0.2 µM
CCCCCCCCCCCCCCCC(=O)N[C@@H](CCC(=O)NCCOCCOCCC(=O)NCCOCCOCCC(=O)NCCCC[C@H](NC(=O)[C@H](CC(=O)O)NC(=O)[C@H](CC(C)C)NC(=O)[C@H](Cc1ccc(O)cc1)NC(=O)[C@H](CCCCN)NC(=O)[C@H](CO)NC(=O)[C@H](Cc1ccc(O)cc1)NC(=O)[C@H](CC(=O)O)NC(=O)[C@H](CO)NC(=O)[C@@H](NC(=O)[C@H](Cc1ccccc1)NC(=O)[C@@H](NC(=O)CNC(=O)[C@H](CCC(N)=O)NC(=O)[C@@H](CO)NC(=O)[C@@H](N)Cc1c[nH]cn1)[C@@H](C)O)[C@@H](C)O)C(=O)N[C@@H](CCCNC(=N)N)C(=O)N[C@@H](CCCNC(=N)N)C(=O)N[C@@H](C)C(=O)N[C@@H](CCC(N)=O)C(=O)N[C@@H](CC(=O)O)C(=O)N[C@@H](Cc1ccccc1)C(=O)N[C@H](C(=O)N[C@@H](CCC(N)=O)C(=O)N[C@@H](Cc1c[nH]c2ccccc12)C(=O)N[C@@H](CC(C)C)C(=O)N[C@@H](CC(C)C)C(=O)N[C@@H](CC(N)=O)C(=O)N[C@H](C(=O)NCC(=O)NCC(=O)N1CCC[C@H]1C(=O)N[C@@H](CO)C(=O)N[C@@H](CO)C(=O)NCC(=O)N[C@@H](C)C(=O)N1CCC[C@H]1C(=O)N1CCC[C@H]1C(=O)N1CCC[C@H]1C(=O)N[C@@H](CO)C(N)=O)[C@@H](C)O)C(C)C)C(=O)O — Cmax (rhesus monkey, male, plasma; subcutaneous, 60 µg/kg, day 1, toxicokinetics, mean): 91.7 ng/mL
CC(=O)Oc1ccc(/C=C/C(=O)O[C@@H]2Cc3c(O)cc(O)cc3O[C@@H]2c2ccc(O)c(O)c2)cc1OC(C)=O — Kd (rep main protease; binding, SPR): 2.44 µM
O=c1oc2cc(O)ccc2c2ccccc12 — Kd (rep main protease; microscale thermophoresis; SARS-CoV-2; overnight, pH 8, 4 °C): > 250 µM
COc1ccc(C(C)NC(=O)c2cc(N)ccc2C)cc1OC (stereo not shown) — Kd (Replicase polyprotein 1ab, papain-like protease (rep, Severe acute respiratory syndrome coronavirus 2, UniProt P0DTD1); binding): 26.7 µM

Excerpt of the above:
O=c1c2cccc([N+](=O)[O-])c2[se]n1Cc1ccccc1 — Kd (rep main protease; cell-free assay): 7.3 µM
Nc1ncnc2c1ncn2[C@@H]1O[C@H](CSCCNC(=O)NCCc2ccccc2)[C@@H](O)[C@H]1O — Kd (rep nsp14; binding to nsp14, surface plasmon resonance): 1.6 µM
CN(C)CCNC(=O)C[C@H](Cc1ccc(F)cc1)NC(=O)[C@@H](Cc1ccc(Cl)cc1Cl)NC(=O)[C@H](N)Cc1ccccc1C#N — Kd (rep main protease; binding, SPR): 0.196 µM
